Experimental data of several laboratories.
Several values in a cell are separate wells, animals, samples, runs or records.

Oc1ccccc1-c1n[nH]cc1-c1ccnc2ccccc12
log2 fold change (RIO2 (Candida albicans); kinase binding, MIB/MS competition; Candida albicans lysate; 10 µM; reference: DMSO): 0.36

CC[S+]([O-])c1nc(-c2ccccc2)cc(C(F)(F)F)n1 (stereo not shown)
cells with nuclear reporter (importin alpha/beta-1; cMyc nuclear import, high content imaging; HeLa Kyoto reporter; 0.05 µM, 2 h): 78.7% and 85.8% and 73.4% and 89.7%

COc1ccc2c(c1)N(C[C@H](C)CN(C)C)c1ccccc1S2
Vmax (H+/organic cation antiporter; cell uptake; hCMEC/D3): 2000 pmol/min/mg protein

c1coc(-c2n[nH]cc2-c2ccnc3ccccc23)c1
log2 fold change (SAK1 (Candida albicans); kinase binding, MIB/MS competition; Candida albicans lysate; 1 µM; reference: DMSO): -0.06

CN1C2CCCC1CC(NC(=O)c1nn(C)c3ccccc13)C2 (stereo not shown)
Vmax (H+/organic cation antiporter; cell uptake; hCMEC/D3): 1110 pmol/min/mg protein

CCn1cc(C(=O)O)c(=O)c2cc(F)c(N3CCNCC3)nc21
lowest IC30 across channels (human seizure ion channel panel; ion current, automated patch clamp): > 30 µM

CCN(CC)CCNC(=O)c1c(C)[nH]c(/C=C2\C(=O)Nc3ccc(F)cc32)c1C
inhibition (PKG1β (human); kinase activity, inhibitor; 10 µM): 72%

CCS(=O)(=O)c1nc(C2CC2)cc(C(F)(F)F)n1
cells with nuclear reporter (importin alpha/beta-1; cMyc nuclear import, high content imaging; HeLa Kyoto reporter; 0.0158 µM, 2 h): 66.5% and 90.2% and 94% and 95.4%

NC(=O)C1(N2CCCCC2)CCN(CCCC(=O)c2ccc(F)cc2)CC1
Km (H+/organic cation antiporter; cell uptake; hCMEC/D3): 76.6 µM

CN(C)CCCN1c2ccccc2Sc2ccc(Cl)cc21
lowest IC30 across channels (human seizure ion channel panel; ion current, automated patch clamp): 2.37 µM

A few entries again:
Oc1ccccc1-c1n[nH]cc1-c1ccnc2ccccc12
log2 fold change (RIO2 (Candida albicans); kinase binding, MIB/MS competition; Candida albicans lysate; 10 µM; reference: DMSO): 0.36
